Measured values gathered from unrelated publications.
“And” joins repeats or separate records; there may be more than shown. Numbers after ± are the reported error. Converted amounts (≈) assume the structure as drawn.
UCHL1: Ubiquitin carboxyl-terminal hydrolase isozyme L1 (UCHL1, Homo sapiens, UniProt P09936)
UniProt P09936, sequence (whole entry, looked up): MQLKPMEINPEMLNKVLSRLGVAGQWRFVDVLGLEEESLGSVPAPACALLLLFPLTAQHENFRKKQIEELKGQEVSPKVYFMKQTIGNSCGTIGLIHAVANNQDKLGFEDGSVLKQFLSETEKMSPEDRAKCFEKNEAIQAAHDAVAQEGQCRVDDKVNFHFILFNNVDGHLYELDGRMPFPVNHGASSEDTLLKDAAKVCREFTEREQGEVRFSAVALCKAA

CO[C@H]1C[C@@H]2CC[C@@H](C)[C@@](O)(O2)C(=O)C(=O)N2CCCC[C@H]2C(=O)O[C@H]([C@H](C)C[C@@H]2CC[C@@H](OC(=O)NCCOCCOCCOCCOCCOCCOCCOCCOCCC(=O)N3CCc4cc(Cn5nc(-c6ccc7oc(N)nc7c6)c6c(N)ncnc65)ccc4C3)[C@H](OC)C2)C[C@@H](O)[C@H](C)/C=C(\C)[C@@H](O)[C@@H](OC)C(=O)[C@H](C)C[C@H](C)/C=C/C=C/C=C/1C  unbound AUClast (mice, plasma; intraperitoneal, 1 mg/kg, weekly dosing): 0.021 to 0.084 µM·h
O=C(CCCN1CCC(O)(c2ccc(Cl)cc2)CC1)c1ccc(F)cc1  mean blood pressure (male Hartley guinea pigs, anaesthetized; intravenous, 0.1 mg/kg group, baseline before infusion): 37 ± 0.2 mmHg
C[C@H]1[C@H]2N(C(=O)CN(C)N2C(=O)NCc2ccccc2)[C@@H](Cc2ccc(OP(=O)(O)O)cc2)C(=O)N1Cc1cccc2cccnc12  plasma concentration (human, plasma; intravenous infusion over 4 h, 280 mg/m2, 4 h after dosing): 1470 ng/mL
C[C@H]1[C@H](OC(=O)CCC(=O)O)O[C@@H]2O[C@@]3(C)CC[C@H]4[C@H](C)CC[C@@H]1[C@@]24OO3  maximum tolerated dose (NSG mouse, ML-2 xenograft; oral, 5 days, twice daily): 120 mg/kg
CC(C)c1ncc(C(=O)N2CCOC3(CCN(Cc4ccc(F)c(CCNC[C@H](O)c5ccc(O)c6[nH]c(=O)sc56)c4)CC3)C2)s1  Clast (healthy human volunteers, plasma; inhaled, dose not given): 0.006 nM
COCc1cc(C(=O)Nc2cc([C@H]3CC[C@@H](OC(=O)NC(C)C)C3)[nH]n2)n(C)n1  unbound Cmax (OVCAR-3 xenograft, NOD/SCID gamma mice, plasma; oral, 125 twice daily, PK/PD study): 2800 nM
COc1ccc(C[C@@H](C)[C@@H](C)Cc2ccc(OC)c(OC)c2)cc1OC  Tmax (beagle dog female, plasma; oral, 300 mg/kg/day, day 1, median): 2 h
N#C[C@@]1(c2ccc3c(N)ncnn23)O[C@H](CO)[C@@H](O)[C@H]1O  recovery (plasma protein binding; monkey plasma; 1 µM, time not given): 93.4%
COc1c(N2C[C@@H]3CCCN[C@@H]3C2)c(F)cc2c(=O)c(C(=O)O)cn(C3CC3)c12  mean blood pressure (male Hartley guinea pigs, anaesthetized; intravenous, 10 mg/kg over 10 min, after infusion): 32 ± 0.5 mmHg
CCCC1CCC(c2ccc(-c3ccc(CC)cc3)cc2)CC1 (centres unmarked)  mean serum concentration (human mother-newborn pairs, maternal serum): 0.31 ng/mL
Cl.[2H]C([2H])([2H])CC(=O)c1cnc(NC(=O)C2CC2)cc1Nc1cccc(-c2ncn(C([2H])([2H])[2H])n2)c1OC  half-life (human, fasted, multiple dose; oral, 40 mg twice daily, tablet, day 14, geometric mean): 12.4 h
Cc1cc(C(=O)NC(C)(C)COc2cccc3c2C(N)=NS(=O)(=O)N3)cc(C)n1  plasma peak area (LC-MS metabolite profiling; Sprague-Dawley rat, both sexes, plasma; oral, 100 mg/kg of parent drug, 24 (unit not given); higher = more metabolite): 76700 a.u.
Cn1c(C(F)(F)F)cc(=O)n(-c2cc(Oc3cccnc3OCC(=O)O)c(Cl)cc2F)c1=O  Tmax (beagle dog, male, plasma; oral capsule, 300 mg/kg/day epyrifenacil, day 1, 90-day study): 6 h
CN1CCN(c2cccc3c2CCN(C(=O)/C=C/c2c(-n4cnnn4)ccc(Cl)c2F)[C@@H]3C(=O)Nc2ccc(C(=O)O)cc2)C(=O)C1  upper respiratory infection subjects (healthy human subjects; intravenous infusion, 9 mg/h, 5 days, study): 22.2%
COc1cccc(NC(=O)C(C#N)=Cc2csnn2)c1  labelling (UCHL1; covalent, intact protein LC-MS; 12.5 µM): 21.1%
Cc1ccc([C@@H]2O[C@H](CO)[C@@H](O)[C@H](O)[C@H]2O)cc1Cc1ccc(-c2ccc(F)cc2)s1  urinary sodium excretion change (Japanese type 2 diabetes patients; 400 mg, day 15, 24 h urine collection; baseline: baseline): 22.6 mEq
CC(C)(C(=O)N1CCOc2c(C#N)cncc2C1)C(F)F  subjects with adverse event (measured: Presyncope; human; oral, 20 mg twice daily, 14 days, multiple ascending dose): 0%
Cc1nc2cccc(OCC(C)(C)C(=O)NC(C)C)c2c(N)c1C(=O)O  micronucleated PCE per 14000 PCE (male Swiss albino CD-1 mouse, bone marrow; oral, 1000 mg/kg, 48 h): 7
O=C(O)c1cccnc1Nc1cccc(C(F)(F)F)c1  pKa (acidic): 4.8
O=C(O)CCC(=O)O.[2H]C([2H])([2H])Oc1cc(C)c2[nH]ccc2c1CN1CC[C@@H](C2CC2)C[C@H]1c1ccc(C(=O)O)cc1  subjects with elevated ALT TEAE (multiple ascending dose; healthy Chinese subjects; 100 mg twice daily): 12.5%
CC(=O)N(C)[C@H]1CCN(C(=O)c2cnc3c(c2)C[C@](C)(c2ccc(F)cc2)N3)C1  adverse event duration (measured: abdominal discomfort; human; oral, 15 mg once daily): 1 days
CNC(=O)c1cc(Oc2ccc(NC(=O)Nc3cc(C(C)(C)C)nn3-c3ccc4ncccc4c3)c(F)c2)ccn1  patients with adverse events (measured: any AESI, worst grade ≥2; human patients; oral, dose not given, medium Cmax subgroup, cycles 1-2): 20%
CCC(CC)C(=O)Oc1cccc(C(O)CCN)c1.O=CO (centres unmarked)  ERG a-wave amplitude (scotopic ERG; BALB/cJ mice; intraperitoneal, 10 mg/kg, 4 h dark adaptation, added: 10,000 lx photobleach, 10 min): 41 µV and 75 µV and 70 µV and 24 µV and 25 µV and 29 µV
NC(=O)N1c2ccccc2C=Cc2ccccc21  adverse events incidence (measured: muscle twitching; human male; oral, dose not given, AEs, treatment-related, on drug, CTCAE): 7%
O=C(c1cc(Cc2n[nH]c(=O)c3ccccc23)ccc1F)N1CCN(C(=O)C2CC2)CC1  AUC(0-12 h) (HPLC-MS/MS; human patients, plasma; oral, 25 mg twice daily, dose level -1, cycle 1 day 1, added: carboplatin target AUC 3): 3970 ng·h/mL
NC1(C(=O)N[C@@H](CCO)c2ccc(Cl)cc2)CCN(c2nc[nH]c3nccc2-3)CC1  incidence of Diarrhoea (metastatic CRPC patients; 480 mg b.i.d., grade 3 to 4, treatment-related, added: enzalutamide 160 mg daily): 20%
CNCc1ccc(-c2[nH]c3cc(F)cc4c3c2CCNC4=O)cc1  constipation incidence (patients; oral, 240 mg twice daily, all grades): 0%
CNC(=O)c1ccccc1Nc1cc(Nc2ccc(N3CCOCC3)cc2OC)ncc1C(F)(F)F  solubility (Labrafac; 24 h, 25 °C): 2160 µg/mL (≈ 4.31 mM)
O=C(Nc1ccc(OC(F)(F)Cl)cc1)c1cnc(N2CC[C@@H](O)C2)c(-c2ccn[nH]2)c1  grade ≥2 event rate (per treatment cycle, measured: ALT increase; human patients; oral, dose not given, 28 day cycle, dose-finding study): 0.9%
CNC(=O)c1cccc(-c2ccc(O[C@H]3O[C@H](CO)[C@@H](O)[C@H](O)[C@@H]3O)c(C)c2)c1  C0 (male Sprague-Dawley rat, plasma; intravenous, 3 mg/kg, group mean): 2910 ng/mL
CNC[C@H](O)[C@@H](O)[C@H](O)[C@H](O)CO.O=C([O-])CN1CCN(CC(=O)[O-])CCN(CC(=O)O)CCN(CC(=O)[O-])CC1.[Gd+3]  relaxivity r1 (fetal bovine serum; 20 °C, 1.0 T, non-self-assembled): 5 ± 0.07 mM⁻¹ s⁻¹
C[C@@H]1COCCN1c1cc(C2([S@](C)(=N)=O)CC2)nc(-c2cc[nH]c3nccc2-3)n1  Vomiting incidence (Japanese advanced solid tumour patients; oral, 240 mg twice daily, CTCAE grade ≥3): 0%
CCc1cc(C(=O)NC)c2nccc(N3CCc4c(cc(Cn5ccnc5)cc4-c4cn(C)nc4C(F)(F)F)C3=O)c2c1  serum TBIL level (Sprague Dawley rats; oral, 100 mg/kg twice daily, 7 days): 1.9 ± 0.26 µmol/L
O=C1C(O)=C([C@H]2CC[C@H](c3ccc(Cl)cc3)CC2)C(=O)c2ccccc21  EC50 (Toxoplasma gondii; parasite growth, luciferase reporter; HFF host cells, tachyzoites; 72 h): 160 nM
CCCc1c(-c2ccc(O)cc2)nn(-c2ccc(O)cc2)c1-c1ccc(O)cc1  aglycone share of Cmax (rat, Long-Evans, female, serum; subcutaneous, 2 mg/kg single dose): 75%
Cc1cc(C)cc(NC(=O)Nc2ccc(N3CCCCC3)cc2)c1  maximum haemolysis (sheep erythrocytes; 1 h, pH 7.5): 33.8%
Cc1cc(Nc2cc3ncccc3c(N[C@@H]3C[C@H]4CC[C@@H](C3)N4CCC#N)n2)n[nH]1  pruritus incidence (healthy human subjects; oral, 100 mg, 2 weeks, single ascending dose): 0%
N[C@@H](Cc1cc(I)c(Oc2ccc(O)c(I)c2)c(I)c1)C(=O)O  pKa (acidic): 3.9
O=C(Nc1nc2cccc(-c3ccc(CN4CCS(=O)(=O)CC4)cc3)n2n1)C1CC1  treatment-emergent adverse events (measured: vertigo; rheumatoid arthritis patients; oral, 75 mg once daily, 4 weeks, any relatedness): 0%
N#Cc1ccc2c(c1)[C@H]1CCCN(C(=O)c3ccc4[nH]cnc4c3)[C@H]1C2  DHEA-S level (human, male; 10 mg, day 15): 5.8 µmol/L
O=C(N/N=C/c1ccccc1O)c1ccncc1  stability (rat plasma; 3 µM, 7 days, -80 °C, long-term storage): 95.8%
C=CCNC(=O)C(C#N)=Cc1ccc(C(=O)O)cc1  labelling (UCHL1; covalent, intact protein LC-MS; 12.5 µM): 10.2%
CCOC(=O)c1cc(Cl)cc(NC(=O)c2sc(Cl)cc2S(=O)(=O)N(C)c2ccc(OCC)c(OC)c2)c1  AUC extrapolated fraction (male C57BL/6 mice, brain; intraperitoneal, 10 mg/kg): 56.5%
Cc1c(-c2ccc(N3CCc4cccc(C(=O)Nc5nc6ccccc6s5)c4C3)nc2C(=O)O)cnn1CC12CC3(C)CC(C)(C1)CC(OCCNCC[C@H](O)CO)(C3)C2  QTcV interval change (beagle dog, male, anaesthetised; intravenous infusion, 0.3 mg/kg/min, 15 min; baseline: vehicle): 1 ms
C=CCN1CC(=O)N2[C@@H](Cc3ccc(O)cc3F)C(=O)N(Cc3cccc(N4CC(N5CCN(CC)CC5)C4)n3)C[C@@H]2N1C(=O)NCc1ccccc1  treatment-related diarrhoea (advanced solid tumour patients; oral, 100 mg twice daily, grade ≥3, dose-escalation): 0%
CC/C(=C(\c1ccccc1)c1ccc(OCCN(C)C)cc1)c1ccccc1  mean blood pressure (male Hartley guinea pigs, anaesthetized; intravenous, 3 mg/kg group, baseline before infusion): 39 ± 0.2 mmHg
Cc1nc(Nc2ncc(C(=O)Nc3c(C)cccc3Cl)s2)cc(N2CCN(CCO)CC2)n1  unrelated TEAEs (human; oral, 100 mg): 0%
CNCCOC12CC3(C)CC(C)(CC(Cn4ncc(-c5ccc(N6CCc7cccc(C(=O)Nc8nc9ccccc9s8)c7C6)nc5C(=O)O)c4C)(C3)C1)C2  QTcV interval change (beagle dog, male, anaesthetised; intravenous bolus, 0.03 mg/kg, 60 min; baseline: baseline): 13 ms
COc1cccc(OC)c1-c1cc(C(=O)NC2(C(=O)O)C3CC4CC(C3)CC2C4)nn1-c1ccc(C(=O)N(C)CCCN(C)CCCN(C)C(=O)CN2CCN(CC(=O)[O-])CCN(CC(=O)[O-])CCN(CC(=O)[O-])CC2)cc1C(C)C.[177Lu+3] (centres unmarked)  tissue uptake (mouse, HT-29 xenograft, brain; 72 h post injection): 0.056 %ID/g
CNC(=O)c1ccc(-c2cnc3ncc(Cc4ccc5ncccc5c4)n3n2)cc1F  alkaline phosphatase increase incidence (all grades) (CTCAE v4.0, any causality; human cancer patients; oral, 600 mg twice daily, expansion cohort at RP2D): 0%
O=C(OC(C(F)(F)F)C(F)(F)F)N1CCN(Cc2cccc(Oc3ccccc3)c2)CC1  k2 (PET blocking study; rhesus monkey, brain CB; 0.3 mg/kg, compound pretreatment, added: [18F]T-401 tracer): 0.887 min⁻¹
C[C@@H](O)CCOC(=O)C[C@@H](C)O  mean change (measured: systolic blood pressure; human; oral, dose not given, 60 min post-dose vs pre-dose; baseline: pre-dose): -7 mmHg
COc1ccc2c(=O)n(C)c(-c3ccccc3)nc2c1  tissue/plasma ratio (Sprague-Dawley rat, male, kidney; oral, 30 mg/kg, 0.5 h; baseline: kidney over plasma): 3.38
CCN1/C(=C/C(C)=O)Sc2ccc(F)cc21  PR interval change (cynomolgus monkey; oral, 10 mg/kg, 0.5 h post-dose; baseline: pre-dose): 100 ± 8.7%
C[C@@H]1CN(c2c(F)c(N)c3c(=O)c(C(=O)O)cn(C4CC4)c3c2F)C[C@H](C)N1  mean blood pressure (male Hartley guinea pigs, anaesthetized; intravenous, 30 mg/kg over 10 min, after infusion): 33 ± 0.2 mmHg
CCN1CCN(Cc2ccc(NC(=O)c3ccc(C)c(NC(=O)c4cncc(-c5cccs5)c4)c3)cc2C(F)(F)F)CC1  AUC(0-inf) (C57BL/6 mice, epithelial lining fluid; intraperitoneal, 15 mg/kg): 4900 ng·h/mL
Cc1nc(O)n2ncc(Cl)c2n1  maximum haemolysis (sheep erythrocytes; 1 h, pH 7.5): 3.1%
Cc1ccc(Sc2ccccc2N2CCNCC2)c(C)c1  mean half-life (healthy male humans fasted, plasma; oral, 10 mg single): 67.6 h
CCN1CCN(Cc2ccc(Nc3ncc(F)c(-c4cc(F)c5nc6n(c5c4)[C@H](C)CCC6)n3)nc2)CC1  CL/F (human, plasma; 100 mg single dose, mean): 33.2 L/h

Repeated from above:
O=C(CCCN1CCC(O)(c2ccc(Cl)cc2)CC1)c1ccc(F)cc1  mean blood pressure (male Hartley guinea pigs, anaesthetized; intravenous, 0.1 mg/kg group, baseline before infusion): 37 ± 0.2 mmHg
CC(C)(C(=O)N1CCOc2c(C#N)cncc2C1)C(F)F  subjects with adverse event (measured: Presyncope; human; oral, 20 mg twice daily, 14 days, multiple ascending dose): 0%
C=CCN1CC(=O)N2[C@@H](Cc3ccc(O)cc3F)C(=O)N(Cc3cccc(N4CC(N5CCN(CC)CC5)C4)n3)C[C@@H]2N1C(=O)NCc1ccccc1  treatment-related diarrhoea (advanced solid tumour patients; oral, 100 mg twice daily, grade ≥3, dose-escalation): 0%
CNC[C@H](O)[C@@H](O)[C@H](O)[C@H](O)CO.O=C([O-])CN1CCN(CC(=O)[O-])CCN(CC(=O)O)CCN(CC(=O)[O-])CC1.[Gd+3]  relaxivity r1 (fetal bovine serum; 20 °C, 1.0 T, non-self-assembled): 5 ± 0.07 mM⁻¹ s⁻¹
